Published values pooled from the literature.
Parts stem from different laboratories: compare values within a part only. Changes are numbered by the printed parent chain.

Study 1
Target: CEP164, C-terminal peptide (human)
Method: DHFR complementation, deep sequencing
Sample: yeast
Notes: single substitutions, model-inferred values
Relative to: wild type
Direction: higher = weaker binding
Starting sequence: PDZK1, PDZ domain 2 (human); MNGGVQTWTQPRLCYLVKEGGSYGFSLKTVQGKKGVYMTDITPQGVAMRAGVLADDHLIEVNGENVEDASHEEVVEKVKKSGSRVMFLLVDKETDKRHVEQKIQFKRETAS; partner HNRVKVYRF
Variant | binding free energy change [kcal/mol]
V17E | -0.187
L13D | 0.505
T39R | 1.53
G63C | 0.207
D56L | 0.121
S22R | -0.178
F105C | -0.193
G21K | 0.122
G24D | 0.687
H57T | -0.277
Q104V | -0.108
P43A | 0.242
K33T | 0.0005
E108Q | -0.461
S22M | -0.587
R49D | 0.747
A54S | 0.0685
E76D | 0.00713
A50F | 0.637

Study 2
Target: Histone acetyltransferase KAT6A, both winged helices, GST fusion (KAT6A, Homo sapiens, UniProt Q92794, residues 1-181)
Method: protein binding microarray
Form: double-stranded DNA, one strand shown
Sample: in vitro
Concentration: not given
Notes: 8-mer, flanks averaged, mean of 2 arrays, mostly near background
Relative to: not given
Direction: higher = stronger binding
Target sequence (chain): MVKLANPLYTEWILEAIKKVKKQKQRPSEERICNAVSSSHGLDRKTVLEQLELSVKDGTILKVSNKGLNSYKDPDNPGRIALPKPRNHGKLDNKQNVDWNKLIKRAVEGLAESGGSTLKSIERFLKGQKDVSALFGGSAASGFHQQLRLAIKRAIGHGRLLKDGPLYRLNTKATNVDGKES
Oligonucleotide | E-score
CGACGTTA | 0.113
GGGCAAAA | 0.0845
AGAACCCG | 0.149
ACGAAGAA | -0.0577
ACTCAAAA | -0.093
CACCATCC | -0.133
CAGGCGGC | 0.213
ATGTCATC | -0.118
AATTCACG | 0.103
ATGAGCTC | -0.113
CTTGCCGC | 0.303
CTTCGTTA | -0.0197
AGTGAACA | -0.1
ACCACTTC | -0.209
ATTTCCTG | -0.19
CGCTAAGA | 0.164
GCCGGTTA | 0.135
CACCCCAC | -0.118
ATAGTCTA | -0.0402
CAAACGTC | 0.119
CCTTCCCG | 0.144
ACATGAAA | -0.0335
CGGCGTCA | 0.259
CAACCAAA | -0.0294
CCGAAGCC | 0.0912

Study 3
Target: CREB3L3, bZIP domain (human)
Method: DHFR protein complementation
Sample: yeast
Notes: single substitutions, most at no-binding floor
Relative to: wild-type JUN-FOS pair
Direction: higher = stronger binding
Starting sequence: JUN, bZIP domain (human); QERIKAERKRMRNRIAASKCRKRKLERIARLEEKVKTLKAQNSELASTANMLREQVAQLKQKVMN; partner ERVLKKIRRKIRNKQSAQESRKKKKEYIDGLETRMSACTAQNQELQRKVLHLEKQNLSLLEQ
Variant | binding fitness [natural log]
N42C | -1.53
L31A | -1.47
L52R | -1.51
S43I | -1.25
Q41G | -1.52
V56Q | -1.47
S43R | -1.43
E33N | -1.46
V35R | -1.54
E54P | -1.52
A46T | -1.37
A46V | -1.46
S43H | -1.38
V56L | -1.45
T48C | -1.46
M51T | -1.27
E32H | -1.51

Study 4
Target: ABI1, truncated, D143A, DHFR fusion (Arabidopsis thaliana, UniProt P49597)
Method: DHFR PCA, dose-response
Sample: yeast
Notes: Hill fit, mean, not affinity
Added: (+)-ABA, dose series
Direction: lower = more sensitive
Starting sequence: PYL1, truncated, DHFR fusion (Arabidopsis thaliana, UniProt Q8VZS8); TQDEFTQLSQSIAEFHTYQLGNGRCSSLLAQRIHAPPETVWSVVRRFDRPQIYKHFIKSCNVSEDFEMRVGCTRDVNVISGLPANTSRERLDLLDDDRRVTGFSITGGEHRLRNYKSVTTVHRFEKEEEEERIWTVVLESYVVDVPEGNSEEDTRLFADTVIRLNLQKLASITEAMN
Variant | ABA EC50 [µM]
K58W | 45.8
F124N | 20
E64F | 5.74
I52R | 3.71
R111V | 473
E38K | 21.6
E147G | 8.33
Q19R | 2.33
G108Q | 504
I133W | 4.56
E151R | 4.05
G81S | 150
E147D | 3.6
D96M | 135
G21L | 4.33
E14H | 11.6
E38S | 3.46
I33M | 7.49
Y115L | 226
G148Y | 34
E125T | 1.98
R99V | 698
L94I | 3.69
P37L | 21.1
R113L | 7.96

Study 5
Target: RNA binding protein fox-1 homolog 2, RRM domain, GST-SBP tag (RBFOX2, Homo sapiens, UniProt O43251-10, residues 100-194)
Method: RNA Bind-n-Seq
Form: RNA
Sample: in vitro
Concentration: 365 nM
Notes: natural RNA segment, single round, ends assumed
Relative to: no-protein control
Direction: higher = stronger binding
Constant ends, left off below: GGGAGUUCUACAGUCCGACGAUC … UGGAAUUCUCGGGUGCCAA
Construct (chain): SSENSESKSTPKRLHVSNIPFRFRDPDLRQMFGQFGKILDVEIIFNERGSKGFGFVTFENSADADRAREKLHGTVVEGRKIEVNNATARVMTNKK
Oligonucleotide | RBNS enrichment (R)
AGGGGACGAAGGUGGGGAUCCUGAAAUGUUCUUCAACUGGGGAAGACAGAGCUCACCUUCAGGCAGGAGCAGGGGCCUCAGCAUUCUGCAGUGAGUGUAGAGUGAAAGUC | 0.611
GUUCCAGCUAGCUUUAAAAGCUAUACGGUGCUAAUUAGUAAAAUAUUGAGGGCAAUAUUUUACUGCUAGCUUGCAAAAUUAUAAGUGUUUUAAAAAUAAAAUACAUGAAA | 1
GGGGGAGGGGAGCCGCUUCCCCACUGUUGCUCUUUUUUAAACAAAUUGAGUUCCUUUUUUUAAGAUAGAAAUUCUUUUCAUGGUCCUCUGAAAGAAGCAAUAGUAACAAU | 0.558
CUUGCUGGGCAUGCUUUUAAGUCUGUGAGAUCAUUUUGCUUCAUUAAGUUGACCAUUCUUUUUGUUUUUCUAAGACACAGAAAUGUAUUUAAUAAAACCUUCAAGAGAGA | 0.971
CUUCCCAGGGCUGCGGUCCUGGUGUCUACUGCCGGCCGGCUGAGUCUGCGUGGGCUUUCUGUCUCUCAGCUCCCUUUCCCAGCCCACAGGGACAGAAGUACCAUCCACUU | 0.284
UAUAGUUUGGCUUCCUCUGUUAAGUCAUUCUACAAGGUGACUUGCCAUUUGAACUUUCGUAAGAGACCUCAGCAGUUAGACUGAGAAAAGUUAGAGUGCUGUAGUUAUGA | 0.402
CAUGAUAGUGCCCCCAACCAGGUUGUAGCAUUGCCUUUUAAAAGAGACUCACUCACUCUUAGUUUUUAAGAACUGGAAAUUUCCCAUCCUCAGAUCCCUUAAAGGAUGAA | 0.747
CCUCCAAACCUGGACUCUGGGACUUAGGCCCCCUUAAAUCUAGACUUCUCUUUAUAGGUUUCAGGUCUCCUAUGGGUGCCUGGGAAGUCCUUGAAAGUGGACUGUUCUCA | 0.664
ACUCUUCAUCCUGGAAGUGGGAACUGGAGUCCCACCCACAGUGCAUUCAGAAAGCAUGCUGUGUGGGGGCUGCUUCUCAGGAGGCCAGGCCCUUCUGAGCGGAACCGUCC | 1.64
GGUGCUGAGAAAGAUAUGUAUGCUGAAGGCUGUGAUUCCUCUUUUUAUUGUACCUAUGCCUGGGUGCUAAAGGUCAUGUAAGGACUAGUUCCUUUGAGGAGGACCCCCUG | 1.52
UUCCCUUUUCCCUCUGUGGCAGUUACGAUUUUGACUUCAGUCCUGAGAAAAACUUCAGGUUUUGAAAAUCAGAUGAUGUCUUCUCCUUUUCCAAACACCACACGUUGAAA | 0.359
CGGCUUUCUCCGAUGAAGACAUUAUAGACUUGAAGUAACAGAGUUGAAUCUCAUUUGCCAUCUUUAGUUUUCUUAUGGAGGUUUAUACUCUUUAAACAGUUCUGAUGUAA | 0.592

Study 6
Target: RING finger protein unkempt homolog, zinc fingers 1-6, SBP tag (UNK, Homo sapiens, UniProt Q9C0B0, residues 30-357)
Sequence of UniProt Q9C0B0 (30-357, looked up): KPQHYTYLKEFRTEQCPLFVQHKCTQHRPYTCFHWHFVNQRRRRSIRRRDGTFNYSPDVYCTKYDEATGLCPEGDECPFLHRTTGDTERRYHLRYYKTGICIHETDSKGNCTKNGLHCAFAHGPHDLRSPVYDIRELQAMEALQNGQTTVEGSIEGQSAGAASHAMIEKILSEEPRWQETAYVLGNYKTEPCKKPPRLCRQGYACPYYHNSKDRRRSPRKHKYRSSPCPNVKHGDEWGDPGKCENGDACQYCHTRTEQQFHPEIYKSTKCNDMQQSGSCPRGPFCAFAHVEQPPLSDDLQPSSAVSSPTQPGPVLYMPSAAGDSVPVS
Method: RNA Bind-n-Seq
Form: RNA
Sample: in vitro
Concentration: 100 nM
Notes: RNA with constant flanks, vertebrate orthologous sites, ends assumed
Relative to: input RNA pool
Direction: higher = stronger binding
Constant ends, left off below: GGGAGUUCUACAGUCCGACGAUC … CAACAGAGGAUUGAGCAUCA
Oligonucleotide | bound/input enrichment [ratio]
UGGGUGACUUUGGACGUCCGCUCAGCCAGGUUGCAGAAGCGGUUUAGUGUGUGUCCUAAUCUUCUCUCUCUGUAGGUAGGCCUGUGCCGCAAACAUGCUCCGCCAGAUCCUCGGGCAAGC | 0.401
CUAAUUUGAUUUUCAGUCUCUUUAUCCUUAUUUUAAGAGCCCCCUUUUUUUAUUUUUUAGGCAUAUAUAGUAACAUUAGCAGAAAGAUUUAAUUUGGGCAACUUUGAUUCUUAAAAGAGA | 0.797
GUCCCUCAGUGACAGUAUGCCAUCGGUAGCCGAUUCCCACUCAAGUCAUUUCUCUGAAUUUAGUUGCUCUGACCUAGAAAGCAUGAAAACUUCUUGUAGCCAUGGUUCCAGUGAUUAUCA | 0.61
UUCAGGCUCAACUGACUGUUUCACAGCAUUCCUUACACAGCUAUUUAACGAGUACAAGUGGAGUGAAUUUUCAGGAUACGUCUAGGCACUCAGCGUUAUCCUGCAGUCCAGUUGGAGAUG | 0.211
UGGGUUACUCCUAUUAUUAUCAAGUAGCUGGAAUUGUGAAGGUCGGAGUAGUUAGAUCUUUAGCUUUUAUUCCUUUUUUUUUUGUAUUACUAUCCAUGUGUAUAAAUUAUUGAUCAUGUU | 3.78
UGUCUUGGUUUGGGGUAGAGGGGAGGGAGGGGCAGGACAGUGUGGAAUCUCUAGGGUGUAUGCAUAGGUAGCCUACACGGUUAGUUCUAAUUGGGCCUUUAUGUUAAAAACCUCUGGGGG | 1.34
CAGCAGAUUCUCUCAUAGGGAGAGCUGCACACAUUGCUGUUCUUGAUUCAGAAAUAUUUUUAGAAAAAUUCUUCCUUGUUGCUGCCCUGAAGUACUUUCAGUAGAGAAGAGCAUCGUAAG | 0.45
UGAGGGAGAGAUUUCUGUGCUUUCUCAUAUUUAAUUUGUUGUUUUUAAGAUAUUCCAACCUAGAGUUUUUGAUGGAACUGAUAUAUUGAUAGUUCUCACCUAAGUCCUUUUAUAAAGAAU | 1.28
AAAUGGCUUCUGCUCCAUUAAGAAGAGUAAAAAUAGUCCCGCAACUAUAAAGCUCCUCAAUAGCUAUUUUUAAAAUAAAAAUGUUUAAAUUUUGUAAAUCACCUGAUGCCACUACACGAC | 2.25
AGAGGGAAACUAUUGAAUAGUAUUAAGACUCUUGUCUUCCUUUUGGGGGGGGUCCCAUAAUAGUCUACUUUUUUAAAUUUCAGAUUUCACUGCUCUUUGAAUUGAUAUUUCCAAUUUUCU | 1.96
AGCAACCCAAGGAUUCAGGACUGGUCUUAUAAAUACACCAAGUAAAUCUGGAACUAACAACAGAAUUGGACAACCUAGGCCUUAAUGUACCUCUAGUGUGUAUUUAUGAGGAAUUUUGAC | 0.578

Study 7
Target: CCND3, cyclin fold, Cln2 fusion (human)
Method: yeast growth competition, sequencing
Sample: yeast
Notes: weak parent motif
Relative to: not given
Direction: higher = stronger binding
Starting sequence: FOXM1 docking peptide (human); PHLARPIKVESPP
Variant | normalised enrichment score
S11A | -0.216
P1A | -0.388
K8A | -0.0538
E10A | -0.408
H2A | 0.0976
P6A | -0.255

Repeated from above (study 4):
Variant | ABA EC50 [µM]
D96M | 135
G21L | 4.33
E14H | 11.6
E38S | 3.46
I33M | 7.49
Y115L | 226
G148Y | 34
E125T | 1.98
